Measured values pooled from the literature.

CC(C)n1c(Nc2cccnc2)nc2cnc(Nc3ccc(N4CCN(C)CC4)cc3)nc21
adverse event incidence (refers to: Hyperuricemia; healthy male subjects; oral, 100 mg, added: gemfibrozil): 0%

CNC(=O)c1ccc(-c2cnc3ncc(Cc4ccc5ncccc5c4)n3n2)cc1F
adverse event incidence (phase 1 clinical trial, refers to: upper abdominal pain; all expansion cohorts; oral, 600 mg twice daily, grade 3 or 4): 0%

CC(=O)O[C@H]1C(=O)[C@@]2(C)[C@H]([C@H](OC(=O)c3ccccc3)[C@]3(O)C[C@H](OC(=O)[C@H](O)[C@@H](NC(=O)c4ccccc4)c4ccccc4)C(C)=C1C3(C)C)[C@]1(OC(C)=O)CO[C@@H]1C[C@@H]2O
adverse event incidence (refers to: aspartate aminotransferase increased; patients with advanced solid tumours; intravenous, dose not given, grade 3 and 4, possibly related to drug): 6%

Cc1ccc(Sc2ccccc2N2CCNCC2)c(C)c1
adverse event incidence (any TEAE; healthy adult men; oral, 10 mg single dose, 8 nights, overall): 15%

CC[C@H](C)[C@H](NC(=O)[C@H](Cc1ccccc1)NC(=O)[C@H](CCC(=O)O)NC(=O)[C@H](CCCCNC(=O)COCCOCCNC(=O)COCCOCCNC(=O)CC[C@H](NC(=O)CCCCCCCCCCCCCCCCC(=O)O)C(=O)O)NC(=O)[C@H](C)NC(=O)[C@H](C)NC(=O)[C@H](CCC(N)=O)NC(=O)CNC(=O)[C@H](CCC(=O)O)NC(=O)[C@H](CC(C)C)NC(=O)[C@H](Cc1ccc(O)cc1)NC(=O)[C@H](CO)NC(=O)[C@H](CO)NC(=O)[C@@H](NC(=O)[C@H](CC(=O)O)NC(=O)[C@H](CO)NC(=O)[C@@H](NC(=O)[C@H](Cc1ccccc1)NC(=O)[C@@H](NC(=O)CNC(=O)[C@H](CCC(=O)O)NC(=O)C(C)(C)NC(=O)[C@@H](N)Cc1cnc[nH]1)[C@@H](C)O)[C@@H](C)O)C(C)C)C(=O)N[C@@H](C)C(=O)N[C@@H](Cc1c[nH]c2ccccc12)C(=O)N[C@@H](CC(C)C)C(=O)N[C@H](C(=O)N[C@@H](CCCNC(=N)N)C(=O)NCC(=O)N[C@@H](CCCNC(=N)N)C(=O)NCC(=O)O)C(C)C
adverse event incidence (refers to: Constipation; type 2 diabetes patients; dose not given; reference: subjects): 20%

FC(F)(F)c1ccc(CNc2ccc(Cc3c[nH]c4ncc(Cl)cc34)cn2)cn1
adverse event incidence (refers to: Hypophosphataemia; patients with advanced solid tumours; oral, dose not given, all grades, possibly related to drug): 15%

NCCONC(=O)[C@@H]1CC[C@@H]2CN1C(=O)N2OS(=O)(=O)O
adverse event incidence (refers to: leading to dose reduction; healthy Chinese men; intravenous, 2 g, treatment-emergent): 0%

O=C1CCc2ccc(OCCCCN3CCN(c4cccc(Cl)c4Cl)CC3)cc2N1
adverse event incidence (refers to: Hypertension; patients, CYP2D6 ultrarapid metabolizers; dose not given, long-acting oral or depot): 25%

Repeated from above:
CNC(=O)c1ccc(-c2cnc3ncc(Cc4ccc5ncccc5c4)n3n2)cc1F
adverse event incidence (phase 1 clinical trial, refers to: upper abdominal pain; all expansion cohorts; oral, 600 mg twice daily, grade 3 or 4): 0%
